Measured values collected from several papers.
Cell line: MDA-MB-468

C1=[N+]2CCCC[N+]3=Cc4ccc5[n]4[Au-]23[n]2c1ccc2-c1nc2ccccc2nc1-5.F[P-](F)(F)(F)(F)F  IC50 (NCI60 five-dose screen): 2.6 µM
Cc1cnc(Nc2ccc3c(c2)CCN(C(=O)/C=C/C(=O)C2CCC(C)CC2)C3)nc1-c1cnn(C(C)C)c1 (stereo not drawn)  IC50 (cell growth or viability, MTT; 48 h): 1.15 µM
CC(C)c1ccc(N(C)c2ccc3c(c2)OCC[C@H]3CNc2cnccc2C(=O)O)cc1  IC50 (cell growth or viability, ATP luminescence; 7 days): ≥ 10 µM
CC(C)=Cc1cc(Cl)cc(Sc2nc3c(N)ncnc3n2CCCNC(C)C)c1  IC50 (cell growth or viability, resazurin; 72 h): 9.5 µM
CC(C)(C)OC(=O)N1CCN(CC(OCc2ccc(Cl)cc2)c2ccc(Cl)cc2Cl)CC1 (stereo not drawn)  IC50 (cell growth or viability, MTT; 24 h): 22 µM
Nc1ncc(-c2cc(-c3cnn(CC(F)(F)F)c3)ncc2F)nc1C(=O)NC1CNCC(F)C1 (stereo not drawn)  IC50 (cell growth or viability, ATP luminescence; 72 h): 1.05 µM
CC(C)NCCCn1c(Sc2cc(Cl)cc(I)c2)nc2c(N)ncnc21  IC50 (cell growth or viability, resazurin; 72 h): 0.12 µM
Cc1ccnc(-c2cc(C(=O)O)ccn2)c1.F[P-](F)(F)(F)(F)F.F[P-](F)(F)(F)(F)F.[Ru+2].c1ccc(-c2ccccn2)nc1.c1ccc(-c2ccccn2)nc1  IC50 (cell viability; 48 h, light irradiation 2.5 min): > 100 µM
COC(=O)N1c2ccc3c(nc(Cc4ccccc4)n3[C@@H]3CCC[C@@H](C(=O)O)C3)c2CC[C@@H]1C  IC50 (cell growth or viability, ATP luminescence; 10 days): 3.13 µM
CC(C)(C)CNCCCn1c(Sc2cc(Cl)cc(Cl)c2)nc2c(N)nc(F)nc21  IC50 (cell growth or viability, resazurin; 72 h): 0.16 µM
Clc1ccc(C(Cn2ccnc2)OCc2ccc3ccccc3c2)c(Cl)c1 (stereo not drawn)  IC50 (cell growth or viability, MTT; 24 h): 37.6 µM
CC(C)NCCCn1c(Sc2ccc(Cl)cc2Cl)nc2c(N)ncnc21  IC50 (cell growth or viability, resazurin; 72 h): > 10 µM
O=C(CN1CCCCC1)N1CCN(CC(OCc2ccc3ccccc3c2)c2ccc(Cl)cc2Cl)CC1 (stereo not drawn)  IC50 (cell growth or viability, MTT; 24 h): 13.5 µM
Nc1ncnc2c1nc(Sc1cc(Cl)cc(Cl)c1)n2CCCNCC(F)(F)F  IC50 (cell growth or viability, resazurin; 72 h): > 10 µM
Clc1ccc(C(Cn2cnc3ccccc32)OCc2ccc(Br)cc2)c(Cl)c1 (stereo not drawn)  IC50 (cell growth or viability, MTT; 24 h): 45.4 µM

A few entries again:
Nc1ncnc2c1nc(Sc1cc(Cl)cc(Cl)c1)n2CCCNCC(F)(F)F  IC50 (cell growth or viability, resazurin; 72 h): > 10 µM
Clc1ccc(C(Cn2cnc3ccccc32)OCc2ccc(Br)cc2)c(Cl)c1 (stereo not drawn)  IC50 (cell growth or viability, MTT; 24 h): 45.4 µM
